Measured values collected from several papers.
Lines come from different studies, so protocols differ. Numbers after ± are the reported error.
UniProt Q71U36, sequence (whole entry, looked up): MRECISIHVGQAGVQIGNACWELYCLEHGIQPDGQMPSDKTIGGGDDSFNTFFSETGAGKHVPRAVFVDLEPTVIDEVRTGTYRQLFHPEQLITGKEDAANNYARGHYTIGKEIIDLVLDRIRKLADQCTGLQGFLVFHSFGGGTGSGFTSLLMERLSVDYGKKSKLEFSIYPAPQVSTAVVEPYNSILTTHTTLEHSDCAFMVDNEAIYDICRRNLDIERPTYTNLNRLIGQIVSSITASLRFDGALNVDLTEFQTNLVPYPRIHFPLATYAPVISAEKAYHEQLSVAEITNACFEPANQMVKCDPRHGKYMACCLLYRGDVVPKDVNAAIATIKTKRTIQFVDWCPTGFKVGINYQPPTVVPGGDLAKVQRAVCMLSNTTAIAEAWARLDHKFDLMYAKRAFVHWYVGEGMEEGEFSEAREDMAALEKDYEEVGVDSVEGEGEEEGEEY
UniProt P50416, sequence (whole entry, looked up): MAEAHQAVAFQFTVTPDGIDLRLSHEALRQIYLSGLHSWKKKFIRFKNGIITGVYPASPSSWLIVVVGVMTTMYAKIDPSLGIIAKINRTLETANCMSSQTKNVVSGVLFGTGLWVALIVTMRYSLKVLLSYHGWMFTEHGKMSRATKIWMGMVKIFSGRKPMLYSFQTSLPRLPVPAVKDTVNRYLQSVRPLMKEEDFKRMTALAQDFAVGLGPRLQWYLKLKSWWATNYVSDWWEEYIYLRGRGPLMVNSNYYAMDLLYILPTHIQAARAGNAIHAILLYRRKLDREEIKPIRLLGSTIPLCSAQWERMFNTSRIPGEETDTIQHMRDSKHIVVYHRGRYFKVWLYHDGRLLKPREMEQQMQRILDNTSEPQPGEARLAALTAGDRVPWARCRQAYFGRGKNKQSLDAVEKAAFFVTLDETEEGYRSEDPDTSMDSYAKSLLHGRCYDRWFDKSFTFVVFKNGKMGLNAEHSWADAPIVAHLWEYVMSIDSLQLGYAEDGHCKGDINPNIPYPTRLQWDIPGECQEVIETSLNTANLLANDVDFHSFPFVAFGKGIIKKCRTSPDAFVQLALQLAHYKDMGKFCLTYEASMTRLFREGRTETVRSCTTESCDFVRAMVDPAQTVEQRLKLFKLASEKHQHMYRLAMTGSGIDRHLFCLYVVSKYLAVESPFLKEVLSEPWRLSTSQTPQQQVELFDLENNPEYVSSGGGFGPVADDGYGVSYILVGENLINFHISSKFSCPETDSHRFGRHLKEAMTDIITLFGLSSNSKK

O=C1Nc2cc3[nH]nc(-c4ccncc4)c3cc2CN1Cc1ccccc1 — patients with TEAE (item: Dyspnea; patients with advanced solid tumours; intravenous, dose not given, all schedules): 12%
CN1CC[C@@H](c2c(O)cc(O)c3c(=O)cc(-c4ccc(C(F)(F)F)cc4Cl)oc23)[C@@H]1CO — patients with adverse event (item: Hypotension; B-cell malignancies; oral, 200 mg, intermittent dosing): 0%
O=C(c1ccc(F)c(F)c1Nc1ccc(I)cc1F)N1CC(O)([C@@H]2CCCCN2)C1 — serious adverse events (human patients; oral, 1 mg/kg, dose expansion): 50%
CC(C)[C@H](N)C(=O)NCCCS(=O)(=O)O — plasma concentration (human; oral, 265 mg twice daily, 3 h post-dose, steady state, week 65): 1500 ng/mL
CC[C@H](C)[C@H](NC(=O)[C@H](Cc1ccccc1)NC(=O)[C@H](CCC(=O)O)NC(=O)[C@H](CCCNC(=N)N)NC(=O)[C@H](C)NC(=O)[C@H](C)NC(=O)[C@H](CCC(N)=O)NC(=O)[C@H](CCC(=O)O)NC(=O)[C@H](CCC(=O)O)NC(=O)[C@H](CC(C)C)NC(=O)[C@H](Cc1ccc(O)cc1)NC(=O)[C@H](CO)NC(=O)[C@H](CO)NC(=O)[C@@H](NC(=O)[C@H](CC(=O)O)NC(=O)[C@H](CO)NC(=O)[C@@H](NC(=O)[C@H](Cc1ccccc1)NC(=O)[C@@H](NC(=O)CNC(=O)[C@H](CCC(=O)O)NC(=O)[C@H](C)NC(=O)CCc1cnc[nH]1)[C@@H](C)O)[C@@H](C)O)C(C)C)C(=O)N[C@@H](C)C(=O)N[C@@H](Cc1c[nH]c2ccccc12)C(=O)N[C@@H](CC(C)C)C(=O)N[C@H](C(=O)N[C@@H](CCCNC(=N)N)C(=O)NCC(=O)N[C@@H](CCCNC(=N)N)C(=O)N[C@@H](CCCCNC(=O)COCCOCCNC(=O)COCCOCCNC(=O)CC[C@H](NC(=O)CCCCCCCCCCCCCCCCC(=O)O)C(=O)O)C(=O)NCC(=O)NCC(=O)N[C@@H](CO)C(=O)N[C@@H](CCSC)C(=O)N[C@H](C(=O)N[C@@H](CCCCNc1c(NCCCCCN(O)C(=O)CCC(=O)NCCCCCN(O)C(=O)CCC(=O)NCCCCCN(O)C(C)=O)c(=O)c1=O)C(=O)O)C(C)C)C(C)C [zirconium-89 labelled] — tissue uptake (ex vivo gamma counting; male Sprague-Dawley rats, spleen; intravenous, 1 nmol, 24 h, mean of 3 animals): 0.33 %ID/g
COc1cc2c(Oc3ccc4[nH]c(C)cc4c3F)ccnc2cc1OCC1(N)CC1 — Haematochezia incidence (paediatric refractory sarcoma patients; 8 mg): 0%
Cc1ccc2cc(N3CCC4(O)C(=O)c5cc(C)c(C)cc5N=C34)ccc2n1 (stereo not drawn) — respiratory rate increase (rat; intravenous, 30 mg/kg, GLP safety pharmacology; reference: vehicle): 27.7 breaths/min
N[C@@H]1c2ccccc2OC12CCN(c1cnc3c(N4CCCc5ncccc54)n[nH]c3n1)CC2 — patients with any TEAE (advanced solid tumour patients; oral, 50 mg once daily): 100%
COc1ccc(-c2c(-c3ccc(C#N)c(F)c3)nc(N3CCC(N)CC3)n(C)c2=O)cc1F — serious adverse event incidence (item: Anemia; human patients; oral, 60 mg, dose expansion): 5%
COc1cc(N2CCC(N3CCN(C)CC3)CC2)ccc1Nc1ncnc(Nc2ccccc2S(=O)(=O)C(C)C)n1 — treatment-emergent adverse events (item: Anemia; Japanese patients with solid tumours; oral, dose not given, all grades): 4 number (percent)
CC(=O)c1c([O-])cc(C)oc1=O.[Na+] — mean residence time (Wistar rat, female, serum; oral, 200 mg/kg, no CYP inhibitor): 8.01 ± 0.23 h
CO[C@H]1C[C@@H]2CC[C@@H](C)[C@@](O)(O2)C(=O)C(=O)N2CCCC[C@H]2C(=O)O[C@H]([C@H](C)C[C@@H]2CC[C@@H](OC(=O)NCCOCCOCCOCCOCCOCCOCCOCCOCCC(=O)N3CCc4cc(Cn5nc(-c6ccc7oc(N)nc7c6)c6c(N)ncnc65)ccc4C3)[C@H](OC)C2)C[C@@H](O)[C@H](C)/C=C(\C)[C@@H](O)[C@@H](OC)C(=O)[C@H](C)C[C@H](C)/C=C/C=C/C=C/1C — maculopapular rash incidence (patients with advanced solid tumours; intravenous, 10 mg weekly, any grade): 12.5%
CCS(=O)(=O)Nc1ccc(Oc2ccc(F)cc2F)c(-c2cn(C)c(=O)c3[nH]ccc23)c1 — treatment-emergent adverse events (fatal fungal pneumonia; human, relapsed/refractory AML; oral, dose not given): 5%
C[C@@H](NC(=O)N1C(=O)[C@H](Cc2ccnc(N)c2)[C@H]1C(=O)O)C1CCCCC1 — incidence of AEs leading to death (healthy adult Chinese volunteers; continuous intravenous infusion, 0.3 mg/kg/h, 5-day infusion, CTCAE 5.0 grading): 0%
CC(=O)c1c(C)c2cnc(Nc3ccc(C4CCN(CCS(C)(=O)=O)CC4)cn3)nc2n(C2CCCC2)c1=O — clearance (human, dose-escalation trial, plasma; oral, 75 mg twice daily, day 1, single dose): 1920 mL/min
N#C/N=C1\SCCN1Cc1ccc(Cl)nc1 — concentration (soil; 56 days, nominal 1.1): 0.02 mg/kg dry soil
C=CCNc1c(O)cc2c(O)c1C[C@@H](C)C[C@H](OC)[C@H](O)[C@@H](C)/C=C(\C)[C@H](OC(N)=O)[C@@H](OC)/C=C\C=C(/C)C(=O)N2 — patients with ALP increase (unresectable or metastatic sarcoma; intravenous, 90 mg/m^2, grade 3-4 lab change): 17%
C[C@H]1CN(c2n[nH]c3nc(N[C@H]4CC[C@H](NS(=O)(=O)CCC(F)(F)F)CC4)ncc23)CCO1 — remaining binding (Tubulin alpha-1A chain (Homo sapiens, UniProt Q71U36); Kinobeads competition, item: TUBA1A; 0.16 µM, unit not given; reference: vehicle): 1.02
CCN1[C@@H](C(=O)NC23CCC(C(=O)O)(CC2)CC3)[C@H](c2cccc(Cl)c2F)[C@]2(C(=O)Nc3cc(Cl)ccc32)C12CCCCC2 — Dizziness incidence (patients with advanced solid tumours; oral, dose not given, all doses): 9.5%
COc1ccc(CCC2CCCC(CCc3ccc(OC)cc3)N2C[C@@H](O)CO)cc1.Cl (stereo in doubt) — resting membrane potential change (rabbit Purkinje fibres; 0.1 µM, cycle length 0.5 s; reference: baseline): 0.1 ± 1.4 mV
CC[C@H](C)[C@@H]1NC(=O)[C@@H]2CCCN2C(=O)[C@H](CC(C)C)NC(=O)[C@H](CC(C)C)NC(=O)CNC(=O)[C@@H](NC(=O)[C@@H](NC(=O)[C@H](CC(=O)O)NC(=O)CNC(=O)[C@@H](NC(=O)[C@H](C)NC(=O)CNC(=O)[C@H](CCCCN)NC(=O)[C@H](CC(C)C)NC(=O)[C@H](CC(C)C)NC(=O)[C@H](CCCCN)NC(=O)CNC(=O)[C@@H](NC(=O)[C@@H](N)CC(C)C)C(C)C)C(C)C)C(C)C)CSSC[C@@H](C(=O)O)NC1=O — log2 fold change (RNA-seq, item: Casp7; mouse, traumatic brain injury model, frontal cortex and hippocampus; dose not given; reference: TBI alone): 0.4
O=C(Nc1ccccc1)C1CCN(C(=O)Oc2cccnc2)CC1 — subjects with Photophobia adverse event (adverse event reporting; healthy women; oral, 60 mg, 7 days): 7.1%
C1=Cc2nc1cc1ccc([n-]1)c(-c1ccccc1)c1nc(cc3ccc([n-]3)c2-c2ccccc2)C=C1.CC(=O)[O-].[Mn+3] — mean plasma concentration (LC-MS/MS; Sprague-Dawley rat, plasma; oral gavage, dose not given, 240 min): 110 ng/mL
CCCCCCCCCC(=O)N[C@@H](Cc1c[nH]c2ccccc12)C(=O)N[C@H](CC(N)=O)C(=O)N[C@@H](CC(=O)O)C(=O)N[C@@H]1C(=O)NCC(=O)N[C@@H](CCCN)C(=O)N[C@@H](CC(=O)O)C(=O)N[C@H](C)C(=O)N[C@@H](CC(=O)O)C(=O)NCC(=O)N[C@H](CO)C(=O)N[C@@H]([C@H](C)CC(=O)O)C(=O)N[C@@H](CC(=O)c2ccccc2N)C(=O)O[C@@H]1C — central volume (population PK model; human; intravenous, dose not given, two-compartment model): 4.79 L
CC/C(=C(\c1ccccc1)c1ccc(OCCN(C)C)cc1)c1ccccc1 — half-life (CD-1 mouse, male, plasma; intraperitoneal, 3 mg/kg): 7.73 h
COc1cc(Nc2ncc(F)c(Nc3ccc4c(n3)NC(=O)C(C)(C)O4)n2)cc(OC)c1OC — IC50 (CPT1A (Homo sapiens, UniProt P50416); enzyme activity, inhibitor): > 10 µM
O=S(=O)(Nc1ccccc1)c1ccc(NC(=S)Nc2ccccc2)cc1 — relative organ weight (female mice, heart; oral, 80 mg/kg daily 14 days; reference: body weight): 0.48%
C[C@]1(CO)Cc2ncn(-c3ccc(C#N)c(Cl)c3)c2C(=O)O1 — subjects with drug-related acne (human, Chinese; 20 mg single dose): 0%
CC(C)[C@@H]1NC(=O)CNC(=O)[C@H](CC(N)=O)NC(=O)[C@H](CCCNC(=N)N)NC(=O)[C@H](Cc2ccc(O)cc2)NC(=O)[C@H](C(C)C)NC(=O)[C@@H](NC(=O)[C@@H](NC(=O)[C@H](CC(N)=O)NC(=O)[C@H](Cc2c[nH]c3ccccc23)NC(=O)[C@H](C)NC(=O)[C@H](Cc2ccccc2)NC(=O)CN)C(C)C)CSSC[C@@H](C(=O)N[C@@H](Cc2cnc[nH]2)C(=O)N[C@@H](CCCNC(=N)N)C(=O)N[C@@H](CCCNC(=N)N)C(=O)N[C@@H](C)C(=O)N[C@@H](CC(N)=O)C(N)=O)NC(=O)[C@H](C(C)C)NC(=O)[C@H](CCCNC(=N)N)NC1=O — creatinine (ICR mouse, blood; intramammary, 10 mg/kg, day 5, 3 d dosing): 86.1 ± 2.09 µmol/L
CC1=C(O)C(=O)C=C2C1=CC=C1[C@@]2(C)CC[C@@]2(C)[C@@H]3C[C@](C)(C(=O)O)CC[C@]3(C)CC[C@]12C — time to peak brain concentration (Sprague-Dawley rat male, neocortex; intraperitoneal, 4 mg/kg): 4 h
CC1(C)[C@H](C(=O)O[C@H](C#N)c2cccc(Oc3ccccc3)c2)[C@@H]1C=C(Br)Br — enzyme contribution to clearance (item: CYP3A4; human, age 5 years, recombinant human CYP3A4; 0.1 µM): 0.73%
COc1ccc2nc3cc(Cl)ccc3c(Nc3cc(CN4CCCC4)c(O)c(CN4CCCC4)c3)c2n1 — creatinine level (mouse, blood; intraperitoneal, 28 mg/kg): 24.5 µmol/L
C[C@@H]1OC(=O)NN=C1c1ccc(-c2ccc(F)cc2)c(C(F)(F)F)c1 — patients with TEAE (phase I, first in human, item: blood alkaline phosphatase increased; human; concentration not given, worst grade 1, all doses): 20%
CCc1ccc(CC/C=C/c2ccc3c(c2)C(=O)CC3)cc1 — Neutrophil percentage (Sprague-Dawley rat, male; oral, 450 mg/kg/day, 14 days): 14.8%
C=CC(=O)N1CC[C@H](n2nc(C#Cc3cc(OC)cc(OC)c3)c3c(N)ncnc32)C1 — decreased appetite, any grade (human patients; oral, dose not given, QD regimen, adverse drug reaction, added: lanthanum carbonate hydrate): 54.2%
CC(C)(C)c1cc(-n2nc3ccccc3n2)c(O)c(C(C)(C)C)c1 — daily dermal uptake, percentile (exposure assessment; human, age 3-6 years; concentration not given, spray sunscreen, 95th percentile): 20.8 ng/kg body weight/day
COc1ncccc1-c1cnn2ccc(N3CCN(C(=O)OC(C)C)CC3)nc12 — drug concentration (rat, thermal hyperalgesia model, brain; oral, 3 mg/kg, 180 min): 1010 nM
C=C(C)[C@@H]1CCC(C)=C[C@H]1c1c(O)cc(CCCCC)cc1O — serious AEs (human; 750 mg, trial 17074, added: rifampicin 600 mg): 0%
Clc1ccc(-c2ccccc2)cc1 — alanine aminotransferase (Sprague-Dawley rats, female, serum; inhalation, 23 µg/rat, 4 h after exposure): 66 ± 23 U/L
NCCCC[C@@H]1NC(=O)[C@@H](Cc2c[nH]c3ccccc23)NC(=O)[C@H](c2ccccc2)NC(=O)[C@@H]2C[C@@H](OC(=O)NCCN)CN2C(=O)[C@H](Cc2ccccc2)NC(=O)[C@H](Cc2ccc(OCc3ccccc3)cc2)NC1=O — subjects with injection-site swelling (healthy human volunteers; 1950 µg twice daily): 7%
[O-][S+]1CCc2nc(N3CCC(c4ncc(Cl)cn4)CC3)nc(NC3(CO)CCC3)c21 (stereo not drawn) — subjects with adverse events (phase I trial, item: infections and infestations; idiopathic pulmonary fibrosis patients; 18 mg twice daily): 50%
Cc1cccc(Cn2nc(C3CC3)c3c(NC(=O)c4cnc5cc(OCCN6CCN(C)CC6)ccn45)cccc32)n1 — all-cause adverse events (CTCAE v4.03, item: maculopapular rash; patients with advanced solid tumours; oral, all dose levels, added: pembrolizumab 2 mg/kg IV every 3 weeks): 21.1%

Excerpt of the above:
COc1cc2c(Oc3ccc4[nH]c(C)cc4c3F)ccnc2cc1OCC1(N)CC1 — Haematochezia incidence (paediatric refractory sarcoma patients; 8 mg): 0%
Cc1ccc2cc(N3CCC4(O)C(=O)c5cc(C)c(C)cc5N=C34)ccc2n1 (stereo not drawn) — respiratory rate increase (rat; intravenous, 30 mg/kg, GLP safety pharmacology; reference: vehicle): 27.7 breaths/min
